Experimental data from different studies.
Parts stem from different laboratories: compare values within a part only.
Chain of UniProt Q96SB4 (whole entry, looked up): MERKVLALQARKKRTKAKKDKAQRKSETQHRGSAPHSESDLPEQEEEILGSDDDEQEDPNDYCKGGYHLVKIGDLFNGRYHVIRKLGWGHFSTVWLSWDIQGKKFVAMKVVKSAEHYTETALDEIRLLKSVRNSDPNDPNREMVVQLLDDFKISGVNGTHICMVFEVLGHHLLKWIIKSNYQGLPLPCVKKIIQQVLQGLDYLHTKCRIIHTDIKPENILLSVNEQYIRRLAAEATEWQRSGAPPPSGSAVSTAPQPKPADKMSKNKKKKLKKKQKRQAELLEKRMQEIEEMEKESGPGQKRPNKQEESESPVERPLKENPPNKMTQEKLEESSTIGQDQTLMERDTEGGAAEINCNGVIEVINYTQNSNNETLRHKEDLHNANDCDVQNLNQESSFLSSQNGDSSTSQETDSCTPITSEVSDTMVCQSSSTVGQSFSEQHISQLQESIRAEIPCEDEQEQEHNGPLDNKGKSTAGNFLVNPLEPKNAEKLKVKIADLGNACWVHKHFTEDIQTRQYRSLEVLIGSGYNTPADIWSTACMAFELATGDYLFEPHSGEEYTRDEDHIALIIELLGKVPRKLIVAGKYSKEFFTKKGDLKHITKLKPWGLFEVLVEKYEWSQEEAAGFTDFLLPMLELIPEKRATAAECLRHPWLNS
Chain of UniProt Q16816 (whole entry, looked up): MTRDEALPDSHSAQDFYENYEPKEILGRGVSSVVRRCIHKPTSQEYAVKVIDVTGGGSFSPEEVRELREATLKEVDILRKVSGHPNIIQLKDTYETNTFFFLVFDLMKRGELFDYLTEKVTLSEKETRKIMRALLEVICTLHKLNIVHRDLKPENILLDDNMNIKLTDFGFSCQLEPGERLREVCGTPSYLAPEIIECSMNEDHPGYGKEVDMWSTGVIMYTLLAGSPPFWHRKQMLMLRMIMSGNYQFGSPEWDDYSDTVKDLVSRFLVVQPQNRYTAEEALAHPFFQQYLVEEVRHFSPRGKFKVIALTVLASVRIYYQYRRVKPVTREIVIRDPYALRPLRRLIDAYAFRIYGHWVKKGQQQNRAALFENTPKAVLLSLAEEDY
Chain of UniProt P14616 (whole entry, looked up): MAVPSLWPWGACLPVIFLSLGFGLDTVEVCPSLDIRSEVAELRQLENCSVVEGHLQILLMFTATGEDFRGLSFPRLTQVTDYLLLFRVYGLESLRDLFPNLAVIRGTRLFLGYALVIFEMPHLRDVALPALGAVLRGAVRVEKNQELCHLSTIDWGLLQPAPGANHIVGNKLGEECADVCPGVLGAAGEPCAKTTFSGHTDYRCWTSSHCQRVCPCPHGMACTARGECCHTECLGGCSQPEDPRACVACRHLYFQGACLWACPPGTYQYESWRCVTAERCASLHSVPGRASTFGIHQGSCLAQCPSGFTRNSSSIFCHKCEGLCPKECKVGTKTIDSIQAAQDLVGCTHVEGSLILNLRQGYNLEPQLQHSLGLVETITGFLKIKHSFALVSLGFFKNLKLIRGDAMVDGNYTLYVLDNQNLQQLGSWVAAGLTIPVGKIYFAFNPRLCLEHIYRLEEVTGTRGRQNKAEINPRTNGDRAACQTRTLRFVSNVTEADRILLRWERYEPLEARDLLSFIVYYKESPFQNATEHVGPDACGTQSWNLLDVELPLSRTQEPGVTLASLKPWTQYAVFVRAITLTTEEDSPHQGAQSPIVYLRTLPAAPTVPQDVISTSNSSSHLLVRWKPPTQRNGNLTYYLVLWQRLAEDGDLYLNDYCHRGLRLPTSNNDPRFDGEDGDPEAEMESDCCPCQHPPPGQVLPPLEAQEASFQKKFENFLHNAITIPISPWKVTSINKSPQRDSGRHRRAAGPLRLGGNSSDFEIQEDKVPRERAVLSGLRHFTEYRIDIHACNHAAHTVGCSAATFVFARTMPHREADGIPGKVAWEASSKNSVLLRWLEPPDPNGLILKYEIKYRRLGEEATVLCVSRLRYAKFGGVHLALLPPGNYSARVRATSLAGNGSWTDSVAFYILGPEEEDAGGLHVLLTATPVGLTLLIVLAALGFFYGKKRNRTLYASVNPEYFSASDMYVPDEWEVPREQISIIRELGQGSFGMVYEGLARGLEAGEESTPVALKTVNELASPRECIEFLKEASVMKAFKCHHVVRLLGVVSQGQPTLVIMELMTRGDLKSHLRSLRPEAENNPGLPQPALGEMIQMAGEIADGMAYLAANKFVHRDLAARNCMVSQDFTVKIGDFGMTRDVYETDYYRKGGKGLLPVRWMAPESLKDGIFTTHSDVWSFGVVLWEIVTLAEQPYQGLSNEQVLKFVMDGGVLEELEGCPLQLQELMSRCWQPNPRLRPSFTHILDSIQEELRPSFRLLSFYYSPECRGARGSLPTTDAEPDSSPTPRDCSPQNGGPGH
Chain of UniProt P29317 (whole entry, looked up): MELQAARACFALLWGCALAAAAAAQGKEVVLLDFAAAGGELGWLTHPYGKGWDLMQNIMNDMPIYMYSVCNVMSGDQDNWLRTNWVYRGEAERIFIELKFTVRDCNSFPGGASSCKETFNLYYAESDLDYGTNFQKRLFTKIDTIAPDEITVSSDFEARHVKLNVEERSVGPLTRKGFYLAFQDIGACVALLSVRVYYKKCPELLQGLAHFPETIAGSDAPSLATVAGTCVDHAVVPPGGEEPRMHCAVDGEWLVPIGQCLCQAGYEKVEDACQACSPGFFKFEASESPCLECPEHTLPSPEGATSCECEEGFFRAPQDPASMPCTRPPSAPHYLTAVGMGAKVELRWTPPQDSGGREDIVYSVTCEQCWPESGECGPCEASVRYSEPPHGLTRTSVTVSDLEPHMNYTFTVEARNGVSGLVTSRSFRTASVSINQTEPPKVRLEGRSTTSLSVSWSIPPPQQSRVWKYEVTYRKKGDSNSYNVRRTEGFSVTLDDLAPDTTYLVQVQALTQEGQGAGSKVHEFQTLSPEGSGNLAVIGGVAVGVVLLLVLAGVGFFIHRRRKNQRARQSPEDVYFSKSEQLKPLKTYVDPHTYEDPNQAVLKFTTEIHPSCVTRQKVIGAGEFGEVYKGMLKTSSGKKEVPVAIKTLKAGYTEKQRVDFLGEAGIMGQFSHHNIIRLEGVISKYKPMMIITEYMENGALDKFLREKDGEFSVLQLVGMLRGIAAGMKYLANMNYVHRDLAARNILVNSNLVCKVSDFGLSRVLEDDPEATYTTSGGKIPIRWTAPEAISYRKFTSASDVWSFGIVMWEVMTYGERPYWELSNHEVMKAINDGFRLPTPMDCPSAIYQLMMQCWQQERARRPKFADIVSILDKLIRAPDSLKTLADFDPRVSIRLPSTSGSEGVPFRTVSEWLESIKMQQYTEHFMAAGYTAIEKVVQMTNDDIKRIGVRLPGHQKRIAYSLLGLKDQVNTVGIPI
Chain of UniProt P78368 (whole entry, looked up): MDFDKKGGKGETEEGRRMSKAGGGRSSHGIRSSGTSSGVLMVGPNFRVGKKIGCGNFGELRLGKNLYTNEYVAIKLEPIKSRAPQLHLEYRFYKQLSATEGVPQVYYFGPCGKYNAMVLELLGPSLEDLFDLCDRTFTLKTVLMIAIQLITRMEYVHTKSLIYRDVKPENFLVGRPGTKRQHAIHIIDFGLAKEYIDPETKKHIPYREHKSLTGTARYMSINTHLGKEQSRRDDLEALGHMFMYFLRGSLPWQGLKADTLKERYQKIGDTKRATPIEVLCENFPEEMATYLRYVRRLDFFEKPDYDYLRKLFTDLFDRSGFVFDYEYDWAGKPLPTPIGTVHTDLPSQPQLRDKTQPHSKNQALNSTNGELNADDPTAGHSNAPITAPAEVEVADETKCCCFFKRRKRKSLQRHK

Series 1 — species: mouse; sample: microsomes or S9; tested at: 2 µM; time: 0.5 h
| Compound | remaining compound |
| --- | --- |
| COc1c(Br)cc(OCCc2c(O)nc(C)c(Br)c2O)cc1Br | 8.9% |
| CC(C)(C)OC(=O)N[C@@H](CC(=O)N1CCCCCN1C(=O)C[C@@H](Cc1cc(F)c(F)cc1F)NC(=O)OC(C)(C)C)Cc1cc(F)c(F)cc1F | < 1% |
| O=C(CN(CCc1ccccc1)C(=O)CNS(=O)(=O)c1ccccc1)NCC1CCCO1 (stereo not shown) | 8.92% |
| O=C(NC1CCN(Cc2ccc(OC3CCNCC3)c(Br)c2)CC1)c1ccc(-c2ccccc2)o1 | > 100% |
| COc1ccc(Br)c2[nH]c(=O)cc(CCO)c12 | 0.91% |
| O=C1Nc2cc3ccc(OCc4ccccc4)cc3c3cccc1c23 | 31.9% |
| COc1ccc(CN2C(=O)N[C@@H](CC(=O)Nc3nc(C(C)(C)C)cs3)C2=O)cc1OC | 5.08% |
| CCCc1nc(C#N)c(NCc2ccc3c(c2)OCO3)o1 | < 1% |
| CC(C)COc1cc(=O)n2c(c1C(=O)N(C)CCc1ccccn1)CCCCC2 | 19% |

Series 2 — read-out: enzyme activity; mode: inhibitor; tested at: 10 µM
Target: Calcium/calmodulin-dependent protein kinase type II subunit alpha (CAMK2A, Homo sapiens, UniProt Q9UQM7)
Chain of UniProt Q9UQM7 (whole entry, looked up): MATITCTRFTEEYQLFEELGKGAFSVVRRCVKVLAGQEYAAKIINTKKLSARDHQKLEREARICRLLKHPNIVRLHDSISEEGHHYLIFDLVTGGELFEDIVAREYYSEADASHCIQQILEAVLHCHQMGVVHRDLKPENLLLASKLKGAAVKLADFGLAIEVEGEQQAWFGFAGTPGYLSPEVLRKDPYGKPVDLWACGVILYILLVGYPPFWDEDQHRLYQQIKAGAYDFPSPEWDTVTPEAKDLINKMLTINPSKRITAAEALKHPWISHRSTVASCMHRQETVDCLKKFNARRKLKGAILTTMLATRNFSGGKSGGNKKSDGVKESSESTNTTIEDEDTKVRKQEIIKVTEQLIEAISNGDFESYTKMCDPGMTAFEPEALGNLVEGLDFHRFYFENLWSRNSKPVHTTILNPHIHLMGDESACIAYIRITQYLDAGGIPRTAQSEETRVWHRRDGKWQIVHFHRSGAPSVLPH
| SMILES | inhibition |
| --- | --- |
| O=C1c2ccccc2C(=O)c2c(O)ccc(O)c21 | -2% |
| N[C@@H](CCC(=O)NCC(=O)O)C(=O)O | 19% |
| Oc1cc(O)c2c(c1)OC(c1ccc(O)c(O)c1)C(OC1(c3ccc(O)c(O)c3)Oc3cc(O)cc(O)c3C(O)C1O)C2 (stereo not shown) | -74% |
| CCCCCCCCCCCCC(=O)OC | -13% |
| CCCCCCCCCCCCCCCCCCCCC | -3% |
| NCc1ccc(S(N)(=O)=O)cc1 | 0% |
| C[C@@H]1CC[C@@]2(OC1)O[C@H]1C[C@H]3[C@@H]4CC[C@H]5C[C@@H](O)CC[C@]5(C)[C@H]4CC[C@]3(C)[C@H]1[C@@H]2C | -22% |
| CC(=O)OCC(=O)[C@@]1(O)CC[C@H]2[C@@H]3CCC4=CC(=O)C=C[C@]4(C)[C@@]3(Cl)[C@@H](Cl)C[C@@]21C | -3% |
| CC(=O)N[C@H]1[C@H](O[C@@H]([C@H](O)[C@H](C=O)NC(C)=O)[C@H](O)CO)O[C@H](CO)[C@@H](O[C@@H]2O[C@H](CO)[C@@H](O)[C@H](O)[C@H]2NC(C)=O)[C@@H]1O | -14% |
| O=C1N[C@@H]2[C@@H](O)[C@@H](O)[C@H](O)[C@@H](CO)N2C1=O | -1% |
| Cc1cc(O)c(C)c2c1O[C@](C)(CCC[C@H](C)CCC[C@H](C)CCCC(C)C)CC2 (relative stereo) | 0.03% |

Series 3 — read-out: enzyme activity; tested at: 5 µM; reference: untreated control
Structure (SMILES): O=C(Nc1cnn(-c2csc(C(=O)NC3COC3)c2)c1)Nc1c(F)cccc1Cl
| target | remaining activity [%] |
| --- | --- |
| CSNK1G2 (Homo sapiens, UniProt P78368) | 89 |
| PHKG1 (Homo sapiens, UniProt Q16816) | 90.5 |
| PRKCG (Homo sapiens, UniProt P05129) | 95.7 |
| INSRR (Homo sapiens, UniProt P14616) | 70.3 |
| EPHA2 (Homo sapiens, UniProt P29317) | 97.6 |
| SRPK1 (Homo sapiens, UniProt Q96SB4) | 99 |
| CDC42BPA (Homo sapiens, UniProt Q5VT25) | 97.5 |

Series 4 — read-out: ligand displacement; tested at: 10 µM
Target: Alpha-1A adrenergic receptor (ADRA1A, Homo sapiens, UniProt P35348)
Construct (P35348 1-466): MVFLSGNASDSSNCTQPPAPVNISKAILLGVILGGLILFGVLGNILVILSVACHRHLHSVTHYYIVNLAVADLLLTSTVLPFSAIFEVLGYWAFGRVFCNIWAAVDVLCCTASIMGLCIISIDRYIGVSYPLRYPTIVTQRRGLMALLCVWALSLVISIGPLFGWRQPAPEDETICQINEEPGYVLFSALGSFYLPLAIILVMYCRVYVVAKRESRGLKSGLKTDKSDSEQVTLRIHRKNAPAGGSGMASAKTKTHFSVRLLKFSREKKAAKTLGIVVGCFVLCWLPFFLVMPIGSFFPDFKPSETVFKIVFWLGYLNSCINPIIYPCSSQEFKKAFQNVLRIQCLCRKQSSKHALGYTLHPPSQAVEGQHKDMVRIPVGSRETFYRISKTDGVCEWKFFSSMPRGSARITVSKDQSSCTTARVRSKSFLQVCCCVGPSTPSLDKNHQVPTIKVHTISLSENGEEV
| SMILES | inhibition |
| --- | --- |
| c1ccc(N2CCN(Cc3nc4ccccc4[nH]3)CC2)nc1 | 6.04% |
| O=C(NS(=O)(=O)c1ccc(NCC2CCOCC2)c([N+](=O)[O-])c1)c1ccc(N2CCN(Cc3ccc(C(F)(F)F)cc3-c3ccc(Cl)cc3)CC2)cc1Oc1cnc2[nH]ccc2c1 | -25.5% |
| CC(=O)N1CCC(c2ccc(C(=O)NC3=NCCN3)cc2C(F)(F)F)CC1 | -5.1% |
| Cc1ncc(-c2cc(Cl)ccc2F)cc1-n1c(=O)n(CC(N)=O)c2ccccc21 | 0.25% |
| O=S(=O)(NC1CCC(c2cc(F)ccc2F)(S(=O)(=O)c2ccc(Cl)cc2)CC1)C(F)(F)F (stereo not shown) | 9.88% |
| CC(=O)Nc1ncc(CN2CCC[C@H](Cc3cc(C)nc(C)c3)C2)s1 | 2.36% |
| CCOc1ccc(S(=O)(=O)Nc2ccc(Cl)cc2C#Cc2cnc(C(=O)O)cc2OC)c2ncccc12 | 13.3% |
| CC1CCN(c2ccnc(NCc3cn(C)cn3)n2)CC1 | 15.4% |
| O=C(N[C@H]1CCCCC/C=C\C2C[C@@]2(C(=O)O)NC(=O)[C@@H]2C[C@@H](Oc3ccncc3)CN2C1=O)OC1CCCC1 (stereo partly shown) | 25.7% |
| C[C@@H]1CN(c2cc(-c3n[nH]c4ccc(OC5(C)CC5)cc34)ncn2)C[C@H](C)O1 | 3.49% |
| C[C@H](c1ccc(F)cc1)N(Cc1cccc(C(=O)O)c1)C(=O)c1cnc2ccccc2c1 | -18.3% |
| CN1CCN(C(=O)C(C)(C)c2ccc(C(=O)Nc3cn4cc(-c5cc(C(C)(C)C)cc(C(C)(C)C)c5)ccc4n3)cc2)CC1 | 66.4% |
| COc1ccc2cc(OCC3(C(=O)O)CN(C(=O)c4ccc(F)cc4)C3)ccc2c1 | 2.52% |
| COCCOc1nc(-c2ccc(Cl)nc2)nc2c1CN(C(=O)c1ncn3ccccc13)CC2 | 12.7% |
| CN(C)C(=O)c1sc2nc(N3CCC(S(C)(=O)=O)CC3)cc(C(F)(F)F)c2c1N | 22.8% |
| c1ccc(C2CCN(c3cnc4c(N5CCOCC5)nccn34)CC2)cc1 | 22.5% |
| COc1cc(N[C@@H]2CCCC[C@]2(O)C(F)(F)F)ccc1F | 2.69% |
| Nc1nc(NCc2ccccc2)nc(-c2cccc(CO)c2)n1 | 5.91% |
| COc1cc(C(=O)O)ncc1C#Cc1ccccc1NS(=O)(=O)c1cccc2c(N(C)C)ccnc12 | 13.7% |

A few entries again (series 3):
| target | remaining activity [%] |
| --- | --- |
| PHKG1 (Homo sapiens, UniProt Q16816) | 90.5 |
| PRKCG (Homo sapiens, UniProt P05129) | 95.7 |
| INSRR (Homo sapiens, UniProt P14616) | 70.3 |
| EPHA2 (Homo sapiens, UniProt P29317) | 97.6 |
